Published values gathered from unrelated publications.
Lines come from different studies, so protocols differ.
Sequence of UniProt P00519 (whole entry, unmodified, looked up): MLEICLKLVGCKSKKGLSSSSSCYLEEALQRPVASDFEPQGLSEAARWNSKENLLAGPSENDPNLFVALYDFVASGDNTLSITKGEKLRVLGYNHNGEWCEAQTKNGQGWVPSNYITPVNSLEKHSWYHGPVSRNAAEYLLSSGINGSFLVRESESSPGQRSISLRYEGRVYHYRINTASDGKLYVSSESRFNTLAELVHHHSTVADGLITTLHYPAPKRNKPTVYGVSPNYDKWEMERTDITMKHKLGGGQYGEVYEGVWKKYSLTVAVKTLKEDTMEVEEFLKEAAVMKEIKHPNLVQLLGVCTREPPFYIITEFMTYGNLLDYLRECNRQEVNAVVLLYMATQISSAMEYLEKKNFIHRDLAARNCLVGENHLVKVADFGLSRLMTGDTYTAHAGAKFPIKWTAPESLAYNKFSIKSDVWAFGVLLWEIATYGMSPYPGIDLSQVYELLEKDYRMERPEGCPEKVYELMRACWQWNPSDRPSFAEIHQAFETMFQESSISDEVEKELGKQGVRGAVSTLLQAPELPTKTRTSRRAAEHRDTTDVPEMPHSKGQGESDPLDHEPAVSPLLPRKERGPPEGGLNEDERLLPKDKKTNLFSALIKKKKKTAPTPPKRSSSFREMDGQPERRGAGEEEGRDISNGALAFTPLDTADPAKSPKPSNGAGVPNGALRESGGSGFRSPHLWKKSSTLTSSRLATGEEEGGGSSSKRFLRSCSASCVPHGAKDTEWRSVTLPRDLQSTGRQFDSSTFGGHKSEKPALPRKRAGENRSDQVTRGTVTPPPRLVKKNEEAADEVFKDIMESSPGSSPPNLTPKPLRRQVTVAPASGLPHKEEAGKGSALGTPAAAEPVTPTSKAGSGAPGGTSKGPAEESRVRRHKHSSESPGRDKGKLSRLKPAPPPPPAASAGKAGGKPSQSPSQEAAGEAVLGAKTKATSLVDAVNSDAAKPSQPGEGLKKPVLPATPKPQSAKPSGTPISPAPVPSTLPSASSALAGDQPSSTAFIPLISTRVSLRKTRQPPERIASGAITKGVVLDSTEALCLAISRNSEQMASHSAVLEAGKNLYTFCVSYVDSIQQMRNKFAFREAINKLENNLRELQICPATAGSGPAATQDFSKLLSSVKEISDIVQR
Sequence of UniProt Q14164 (whole entry, looked up): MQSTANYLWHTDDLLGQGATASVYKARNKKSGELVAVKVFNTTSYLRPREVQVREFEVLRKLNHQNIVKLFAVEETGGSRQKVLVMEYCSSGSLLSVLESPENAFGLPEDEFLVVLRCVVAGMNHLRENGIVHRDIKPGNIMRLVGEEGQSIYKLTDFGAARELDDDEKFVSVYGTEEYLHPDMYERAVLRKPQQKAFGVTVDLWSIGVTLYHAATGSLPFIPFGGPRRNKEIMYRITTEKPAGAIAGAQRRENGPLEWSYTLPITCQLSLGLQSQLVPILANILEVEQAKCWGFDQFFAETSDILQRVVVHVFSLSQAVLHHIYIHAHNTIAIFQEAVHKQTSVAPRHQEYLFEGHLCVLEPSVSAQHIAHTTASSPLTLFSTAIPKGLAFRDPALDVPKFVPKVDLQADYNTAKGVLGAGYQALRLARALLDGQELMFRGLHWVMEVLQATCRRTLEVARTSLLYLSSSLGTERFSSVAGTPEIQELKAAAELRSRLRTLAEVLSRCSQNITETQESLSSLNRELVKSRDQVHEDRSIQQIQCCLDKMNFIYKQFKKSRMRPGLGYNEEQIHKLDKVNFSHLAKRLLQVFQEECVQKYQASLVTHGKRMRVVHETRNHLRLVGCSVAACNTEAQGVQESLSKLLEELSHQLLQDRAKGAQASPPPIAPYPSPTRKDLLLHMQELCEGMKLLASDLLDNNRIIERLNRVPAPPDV
Sequence of UniProt Q07002 (whole entry, looked up): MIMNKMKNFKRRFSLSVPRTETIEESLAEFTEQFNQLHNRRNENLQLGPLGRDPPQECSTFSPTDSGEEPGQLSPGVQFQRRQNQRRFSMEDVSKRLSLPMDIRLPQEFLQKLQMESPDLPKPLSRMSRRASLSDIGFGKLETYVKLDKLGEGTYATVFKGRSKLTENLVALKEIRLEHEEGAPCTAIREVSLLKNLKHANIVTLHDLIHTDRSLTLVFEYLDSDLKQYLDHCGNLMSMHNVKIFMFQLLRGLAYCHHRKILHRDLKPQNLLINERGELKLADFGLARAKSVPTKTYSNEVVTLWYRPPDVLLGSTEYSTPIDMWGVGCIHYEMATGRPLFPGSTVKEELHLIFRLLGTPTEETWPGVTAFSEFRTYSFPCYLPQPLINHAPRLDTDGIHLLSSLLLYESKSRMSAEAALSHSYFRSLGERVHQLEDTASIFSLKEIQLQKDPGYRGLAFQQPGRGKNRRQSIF
Sequence of UniProt P46734 (whole entry, looked up): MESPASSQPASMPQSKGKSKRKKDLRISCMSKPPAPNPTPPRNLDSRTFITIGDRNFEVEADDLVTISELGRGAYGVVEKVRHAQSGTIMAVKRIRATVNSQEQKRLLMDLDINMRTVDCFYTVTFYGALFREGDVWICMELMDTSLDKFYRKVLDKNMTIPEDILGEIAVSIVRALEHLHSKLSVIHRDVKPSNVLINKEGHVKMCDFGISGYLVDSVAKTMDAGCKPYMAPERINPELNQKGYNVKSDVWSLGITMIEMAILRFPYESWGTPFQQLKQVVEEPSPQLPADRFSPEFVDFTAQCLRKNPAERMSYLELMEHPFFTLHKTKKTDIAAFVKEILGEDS

| SMILES | target or system | assay | system | setting | endpoint | value |
| --- | --- | --- | --- | --- | --- | --- |
| CNc1ncc2c(/C=C/C(=O)N3CCC(OC)CC3)nn(Cc3cccc(C(F)(F)F)c3)c2n1 | IKBKE (Homo sapiens, UniProt Q14164) | enzyme activity, inhibitor, radiometric |  | 1 µM | remaining activity | 98% |
| Fc1cc(F)c(-c2c(Cl)nc(-c3cccs3)nc2NC2COC2)c(F)c1 | HEK293 | cell growth or viability, resazurin |  | 48 h | CC50 | 14.4 µM |
| C[C@]1(CO)[C@H]2CC[C@@H]3CN(Cc4ccc(F)c(Cl)c4)[C@@H](C4=CCOC4=O)C[C@H]3[C@]2(C)CC[C@H]1O | MRC5 | cell growth or viability, ATP luminescence |  | 25 µM, 72 h | cell death | 9.9% |
| CNC(=O)c1cc(Oc2ccc(NC(=O)Nc3ccc(Cl)c(C(F)(F)F)c3)cc2)ccn1 | WISH | cell growth or viability, MTT |  | 25 µM, 24 h | viability | 34.8% |
| CC(=O)OC[C@@]1(C)[C@H]2CC[C@@H]3CN(Cc4ccc(C)cc4)[C@@H](C4=CCOC4=O)C[C@H]3[C@]2(C)CC[C@H]1OC(C)=O | MRC5 | cell growth or viability, ATP luminescence |  | 25 µM, 72 h | cell death | -11.1% |
| COc1cc(F)c(-c2c(Cl)nc(-c3cccs3)nc2N[C@H](C)C(C)C)c(F)c1 | HEK293 | cell growth or viability, resazurin |  | 48 h | CC50 | 34.3 µM |
| COc1cc(/C=C/C(=O)C(=Cc2ccc(O)cc2)C(=O)/C=C/c2ccc(O)c(OC)c2)ccc1O | WRL68 | cell growth or viability, MTT |  | 0.77 µg/mL, 48 h | viability | 105% |
| COc1cccc(NC(=O)Nc2ccc(Oc3nc4ccccc4n4cnnc34)cc2)c1 | WISH | cell growth or viability, MTT |  | 50 µM, 24 h | viability | 52.5% |
| CC1(C)OC[C@@]2(C)[C@H]3CC[C@@H]4CN(Cc5ccccc5)[C@@H](C5=CCOC5=O)C[C@H]4[C@]3(C)CC[C@H]2O1 | MRC5 | cell growth or viability, ATP luminescence |  | 25 µM, 72 h | cell death | 1.3% |
| Nc1ccn([C@@H]2O[C@H](CO)[C@@H](O)C2(F)F)c(=O)n1 | MCF7 | cell growth or viability, MTT |  | 0.3125 µg/mL, 48 h | viability | 78.9% |
| COc1cccc2c1C(=O)c1c(O)c3c(c(O)c1C2=O)C[C@@](O)(C(=O)CO)C[C@@H]3O[C@H]1C[C@H](N)[C@H](O)[C@H](C)O1 | SW480 | cell growth or viability, MTT |  | 6.25 µg/mL | viability | 71.7% |
| CC1(C)OC[C@@]2(C)[C@H]3CC[C@@H]4CN(Cc5ccc(O)cc5)[C@@H](C5=CCOC5=O)C[C@H]4[C@]3(C)CC[C@H]2O1 | MRC5 | cell growth or viability, ATP luminescence |  | 25 µM, 72 h | cell death | 18.1% |
| Cc1cc([C@@H](C)Nc2ccccc2C(=O)O)c2nc(N3CCC(F)(F)CC3)c(C#N)c(=O)n2c1 | Tyrosine-protein kinase ABL1, phosphorylated (ABL1, Homo sapiens, UniProt P00519, E255K) | binding, competition with immobilised ligand |  | 1 µM | remaining binding | 94% |
| C=CC(=O)N1CCC(COCC(=O)N2CCN(c3nc(-c4cnc(N)nc4C(F)F)nc(N4CCOC[C@@H]4C)n3)CC2)CC1 | MAP2K3 (Homo sapiens, UniProt P46734) | binding, competition with immobilised ligand |  | 1 µM | remaining binding | 80% |
| COc1cccc(OC)c1-c1cc(C(=O)NC2(C(=O)O)C3CC4CC(C3)CC2C4)nn1-c1ccc(C(=O)N(C)CCCN(C)CCCN(C)C(=O)CN2CCN(CC(=O)[O-])CCN(CC(=O)[O-])CCN(CC(=O)[O-])CC2)cc1C(C)C.[177Lu+3] (stereo not shown) | HT-29 tumour model |  | host not given, bone | intravenous, 4 h, tumour-bearing | tracer uptake | 0.8 %ID/g |
| CC1(F)CN(C(=O)Cn2c(=O)c(C(=O)NCc3ccc(Cl)cc3)cc3nc(N4CCN(CC(=O)O)C4=O)cnc32)C1 | MRC5 | cell growth or viability |  |  | CC50 | > 40 µM |
| OCCN(CCO)c1nc(-c2cccs2)nc(Cl)c1-c1c(F)cc(F)cc1F | HEK293 | cell growth or viability, resazurin |  | 48 h | CC50 | 34.9 µM |
| CC1(C)OC[C@@]2(C)[C@H]3CC[C@@H]4CN(Cc5ccc(I)cc5)[C@@H](C5=CCOC5=O)C[C@H]4[C@]3(C)CC[C@H]2O1 | MRC5 | cell growth or viability, ATP luminescence |  | 25 µM, 72 h | cell death | 2.4% |
| CCCCC(=O)Nc1ccc(-c2ccc3ncn(CCC)c(=O)c3c2)cn1 | Tyrosine-protein kinase ABL1, phosphorylated (ABL1, Homo sapiens, UniProt P00519, M351T) | binding, competition with immobilised ligand |  | 0.5 µM | remaining binding | 97% |
| CC1(CNc2nc(-c3cccs3)nc(Cl)c2-c2c(F)cc(F)cc2F)CC1 | HEK293 | cell growth or viability, resazurin |  | 48 h | CC50 | > 50 µM |
| CCCN(O)N=Nc1ccc(S(=O)(=O)Nc2nccs2)cc1 |  | ABTS scavenging |  | 120 µg/mL | inhibition | 49.8% |
| COc1cc(-c2cncc3c2CN(C)Cc2cc(N4CCNCC4)ccc2-3)cc(OC)c1OC | Cyclin-dependent kinase 18, with cyclin Y (CDK18, Homo sapiens, UniProt Q07002) | enzyme activity, inhibitor |  | 1 µM | remaining activity | 97% |

Excerpt of the above:
| SMILES | target or system | assay | system | setting | endpoint | value |
| --- | --- | --- | --- | --- | --- | --- |
| CC1(F)CN(C(=O)Cn2c(=O)c(C(=O)NCc3ccc(Cl)cc3)cc3nc(N4CCN(CC(=O)O)C4=O)cnc32)C1 | MRC5 | cell growth or viability |  |  | CC50 | > 40 µM |
| OCCN(CCO)c1nc(-c2cccs2)nc(Cl)c1-c1c(F)cc(F)cc1F | HEK293 | cell growth or viability, resazurin |  | 48 h | CC50 | 34.9 µM |
| CC1(C)OC[C@@]2(C)[C@H]3CC[C@@H]4CN(Cc5ccc(I)cc5)[C@@H](C5=CCOC5=O)C[C@H]4[C@]3(C)CC[C@H]2O1 | MRC5 | cell growth or viability, ATP luminescence |  | 25 µM, 72 h | cell death | 2.4% |
